Measurements pooled from the literature.
A part holds a random share of what one study measured.
Chain of UniProt Q04912 (whole entry, looked up): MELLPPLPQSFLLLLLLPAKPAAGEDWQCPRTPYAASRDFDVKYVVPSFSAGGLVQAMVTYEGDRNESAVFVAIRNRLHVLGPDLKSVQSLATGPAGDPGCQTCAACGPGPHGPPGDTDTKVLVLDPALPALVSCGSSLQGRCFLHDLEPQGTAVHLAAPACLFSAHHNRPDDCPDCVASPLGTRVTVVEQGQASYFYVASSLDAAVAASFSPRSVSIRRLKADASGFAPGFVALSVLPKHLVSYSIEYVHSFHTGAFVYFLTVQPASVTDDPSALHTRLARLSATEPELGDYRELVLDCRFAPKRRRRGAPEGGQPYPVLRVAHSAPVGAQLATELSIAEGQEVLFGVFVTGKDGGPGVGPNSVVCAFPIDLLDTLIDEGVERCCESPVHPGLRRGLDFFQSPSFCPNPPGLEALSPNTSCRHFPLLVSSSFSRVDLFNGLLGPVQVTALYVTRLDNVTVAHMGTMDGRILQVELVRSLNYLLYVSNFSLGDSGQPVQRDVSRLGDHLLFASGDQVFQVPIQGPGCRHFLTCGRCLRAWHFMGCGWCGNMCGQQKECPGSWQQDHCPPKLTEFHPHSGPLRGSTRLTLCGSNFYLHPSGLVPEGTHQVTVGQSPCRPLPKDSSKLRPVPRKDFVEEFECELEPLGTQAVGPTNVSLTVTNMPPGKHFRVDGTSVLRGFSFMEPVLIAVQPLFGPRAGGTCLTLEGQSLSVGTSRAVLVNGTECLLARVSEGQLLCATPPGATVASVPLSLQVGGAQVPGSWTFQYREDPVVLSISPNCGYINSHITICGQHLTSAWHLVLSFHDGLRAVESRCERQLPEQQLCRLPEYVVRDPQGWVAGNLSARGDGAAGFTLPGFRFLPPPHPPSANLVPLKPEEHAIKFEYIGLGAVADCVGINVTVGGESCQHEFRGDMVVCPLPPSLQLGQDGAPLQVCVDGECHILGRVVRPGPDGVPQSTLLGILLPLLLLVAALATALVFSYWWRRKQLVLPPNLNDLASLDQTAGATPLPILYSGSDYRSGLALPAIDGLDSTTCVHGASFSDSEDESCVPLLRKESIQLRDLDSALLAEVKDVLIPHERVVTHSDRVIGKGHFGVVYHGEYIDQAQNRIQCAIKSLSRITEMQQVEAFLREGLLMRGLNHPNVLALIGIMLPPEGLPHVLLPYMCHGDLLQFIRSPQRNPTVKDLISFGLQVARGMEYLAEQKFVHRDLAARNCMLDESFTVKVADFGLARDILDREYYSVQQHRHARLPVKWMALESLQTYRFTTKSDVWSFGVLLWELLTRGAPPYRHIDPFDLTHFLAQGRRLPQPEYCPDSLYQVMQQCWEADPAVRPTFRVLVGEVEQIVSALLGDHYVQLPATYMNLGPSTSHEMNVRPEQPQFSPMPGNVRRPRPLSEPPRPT
Chain of UniProt P49841 (whole entry, looked up): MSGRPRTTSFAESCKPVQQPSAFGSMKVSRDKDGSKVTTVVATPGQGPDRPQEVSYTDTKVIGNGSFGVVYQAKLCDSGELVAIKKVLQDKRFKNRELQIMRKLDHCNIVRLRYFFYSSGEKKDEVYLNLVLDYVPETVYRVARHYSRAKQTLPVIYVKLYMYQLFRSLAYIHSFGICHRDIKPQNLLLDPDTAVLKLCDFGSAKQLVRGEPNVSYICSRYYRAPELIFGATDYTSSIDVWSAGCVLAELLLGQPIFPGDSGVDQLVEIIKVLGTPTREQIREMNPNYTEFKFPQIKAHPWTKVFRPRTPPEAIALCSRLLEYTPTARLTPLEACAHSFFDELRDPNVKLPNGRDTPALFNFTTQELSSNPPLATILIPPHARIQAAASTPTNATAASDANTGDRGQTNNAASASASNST
Chain of UniProt Q9BRS2 (whole entry, looked up): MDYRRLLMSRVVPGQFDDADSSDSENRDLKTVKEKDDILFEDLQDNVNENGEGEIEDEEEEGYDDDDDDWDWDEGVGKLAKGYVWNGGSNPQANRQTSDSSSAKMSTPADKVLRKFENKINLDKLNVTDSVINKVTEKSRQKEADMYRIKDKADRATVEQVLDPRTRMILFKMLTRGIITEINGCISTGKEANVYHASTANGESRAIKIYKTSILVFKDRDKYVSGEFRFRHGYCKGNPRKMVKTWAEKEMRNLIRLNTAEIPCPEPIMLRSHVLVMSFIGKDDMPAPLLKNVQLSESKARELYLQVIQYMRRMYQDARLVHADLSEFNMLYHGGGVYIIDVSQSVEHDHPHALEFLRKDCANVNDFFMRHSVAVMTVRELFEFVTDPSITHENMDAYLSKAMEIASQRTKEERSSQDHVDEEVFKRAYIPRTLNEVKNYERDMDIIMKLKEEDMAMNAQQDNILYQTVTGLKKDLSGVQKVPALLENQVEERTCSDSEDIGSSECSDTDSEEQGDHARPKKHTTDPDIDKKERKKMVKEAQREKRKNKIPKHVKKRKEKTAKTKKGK
Chain of UniProt Q96NX5 (whole entry, looked up): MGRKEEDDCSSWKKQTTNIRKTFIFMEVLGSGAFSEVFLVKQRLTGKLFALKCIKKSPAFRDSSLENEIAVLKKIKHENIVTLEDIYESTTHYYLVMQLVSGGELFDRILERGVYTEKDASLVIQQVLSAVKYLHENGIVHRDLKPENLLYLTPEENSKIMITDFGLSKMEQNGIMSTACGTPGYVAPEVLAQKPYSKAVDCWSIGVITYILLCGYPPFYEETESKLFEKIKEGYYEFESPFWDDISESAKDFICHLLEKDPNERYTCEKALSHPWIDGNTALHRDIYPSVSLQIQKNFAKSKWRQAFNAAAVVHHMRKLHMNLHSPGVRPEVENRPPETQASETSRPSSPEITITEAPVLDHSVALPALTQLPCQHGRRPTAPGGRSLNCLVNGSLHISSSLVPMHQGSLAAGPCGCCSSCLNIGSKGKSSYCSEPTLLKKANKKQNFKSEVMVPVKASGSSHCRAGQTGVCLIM
Chain of UniProt Q02763 (whole entry, looked up): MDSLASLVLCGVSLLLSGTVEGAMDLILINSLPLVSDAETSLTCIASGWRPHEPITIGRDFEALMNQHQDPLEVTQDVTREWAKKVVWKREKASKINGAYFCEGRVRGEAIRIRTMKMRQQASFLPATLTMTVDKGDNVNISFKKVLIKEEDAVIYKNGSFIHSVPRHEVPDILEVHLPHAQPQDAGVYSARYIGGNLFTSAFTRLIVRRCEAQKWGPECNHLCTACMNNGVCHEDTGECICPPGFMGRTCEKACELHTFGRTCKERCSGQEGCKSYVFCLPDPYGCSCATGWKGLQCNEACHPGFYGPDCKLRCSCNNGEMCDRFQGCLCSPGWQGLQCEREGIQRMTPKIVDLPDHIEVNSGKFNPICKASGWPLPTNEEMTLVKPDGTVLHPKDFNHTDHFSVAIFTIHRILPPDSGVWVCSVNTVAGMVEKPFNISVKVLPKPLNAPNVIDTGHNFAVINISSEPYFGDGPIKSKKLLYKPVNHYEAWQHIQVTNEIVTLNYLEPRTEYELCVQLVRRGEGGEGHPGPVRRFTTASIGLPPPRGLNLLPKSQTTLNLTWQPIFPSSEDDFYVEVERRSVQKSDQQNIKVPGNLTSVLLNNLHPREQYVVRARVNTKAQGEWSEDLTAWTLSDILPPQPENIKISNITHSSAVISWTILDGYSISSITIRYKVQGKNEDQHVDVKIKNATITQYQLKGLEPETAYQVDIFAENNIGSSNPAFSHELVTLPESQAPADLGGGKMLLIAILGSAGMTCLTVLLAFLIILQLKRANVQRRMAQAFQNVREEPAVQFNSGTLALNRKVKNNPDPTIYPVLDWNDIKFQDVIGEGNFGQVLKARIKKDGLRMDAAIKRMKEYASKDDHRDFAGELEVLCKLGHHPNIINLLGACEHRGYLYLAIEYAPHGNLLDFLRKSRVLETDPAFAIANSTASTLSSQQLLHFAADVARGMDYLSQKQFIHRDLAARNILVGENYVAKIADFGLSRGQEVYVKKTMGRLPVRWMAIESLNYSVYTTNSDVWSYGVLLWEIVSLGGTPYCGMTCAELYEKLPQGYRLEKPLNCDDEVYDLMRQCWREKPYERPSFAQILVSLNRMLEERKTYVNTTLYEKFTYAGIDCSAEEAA
Chain of UniProt P42685 (whole entry, looked up): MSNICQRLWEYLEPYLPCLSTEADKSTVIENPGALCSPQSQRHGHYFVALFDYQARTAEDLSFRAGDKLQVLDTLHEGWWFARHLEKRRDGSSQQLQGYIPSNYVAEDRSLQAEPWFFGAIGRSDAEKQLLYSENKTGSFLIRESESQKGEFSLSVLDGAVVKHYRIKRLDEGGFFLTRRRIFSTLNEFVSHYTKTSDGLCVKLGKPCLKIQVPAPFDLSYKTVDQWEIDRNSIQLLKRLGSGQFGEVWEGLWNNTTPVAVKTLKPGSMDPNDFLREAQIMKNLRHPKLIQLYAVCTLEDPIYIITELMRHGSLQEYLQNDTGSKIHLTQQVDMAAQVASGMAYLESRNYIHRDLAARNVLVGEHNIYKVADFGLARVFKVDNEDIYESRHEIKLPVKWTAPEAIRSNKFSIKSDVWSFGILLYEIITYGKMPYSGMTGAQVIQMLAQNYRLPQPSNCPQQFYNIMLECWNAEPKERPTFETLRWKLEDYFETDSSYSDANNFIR
Chain of UniProt Q8WTQ7 (whole entry, looked up): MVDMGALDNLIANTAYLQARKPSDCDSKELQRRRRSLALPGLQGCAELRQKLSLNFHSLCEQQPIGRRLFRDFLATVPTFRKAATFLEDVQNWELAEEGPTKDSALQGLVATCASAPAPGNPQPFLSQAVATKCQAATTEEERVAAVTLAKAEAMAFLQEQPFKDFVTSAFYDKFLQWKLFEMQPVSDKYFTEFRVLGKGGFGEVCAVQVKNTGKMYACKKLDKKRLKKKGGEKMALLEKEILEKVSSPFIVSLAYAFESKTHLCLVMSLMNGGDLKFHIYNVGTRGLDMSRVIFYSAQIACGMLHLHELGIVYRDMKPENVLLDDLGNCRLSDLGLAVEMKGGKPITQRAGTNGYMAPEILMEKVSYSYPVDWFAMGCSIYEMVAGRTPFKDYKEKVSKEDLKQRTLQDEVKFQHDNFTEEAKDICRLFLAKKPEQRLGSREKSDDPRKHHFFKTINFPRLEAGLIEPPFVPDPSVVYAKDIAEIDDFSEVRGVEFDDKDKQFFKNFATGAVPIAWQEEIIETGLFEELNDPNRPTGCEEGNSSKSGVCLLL

Sample 1 — cell line: HaCaT; concentration: 100 µM; time: 18 h
| Compound | viability [%] |
| --- | --- |
| Nc1ccc2cc3ccc(N)cc3nc2c1 | 27.8 |
| COc1ccc(CN=c2[nH]c(N3CCC[C@H]3CO)ncc2C(=O)NCc2ncccn2)cc1Cl | 65.3 |
| CCCCCCCCCC[C@H](C(=O)O)[C@]1(C(=O)O)CCC(=O)O1 | 100 |
| COc1ccc([C@@H]2CC(=O)c3c(O)cc(O)cc3O2)cc1O | 92.5 |
| CC(=O)[C@H]1CC[C@H]2[C@@H]3C[C@H](C)C4=CC(=O)CC[C@]4(C)[C@H]3[C@@H](O)C[C@]12C | 82.1 |
| CC#C[C@]1(O)CC[C@H]2[C@@H]3CCC4=CC(=O)CCC4=C3[C@@H](c3ccc(N(C)C)cc3)C[C@@]21C | 65 |

Sample 2 — effect on: enzyme activity; action: inhibitor; concentration: 0.5 µM; relative to: control
Structure (SMILES): CC(=O)O/N=C1/C(c2c(O)[nH]c3cc(Br)ccc23)=Nc2ccccc21
| target | remaining activity [%] |
| --- | --- |
| RPS6KA2 (Homo sapiens, UniProt Q15349) | 51 |
| NEK1 (Homo sapiens, UniProt Q96PY6) | 94.7 |
| GRK7 (Homo sapiens, UniProt Q8WTQ7) | 99.5 |
| TEK (Homo sapiens, UniProt Q02763) | 106 |
| MST1R (Homo sapiens, UniProt Q04912) | 92.8 |
| TBK1 (Homo sapiens, UniProt Q9UHD2) | 78.5 |
| GSK3B (Homo sapiens, UniProt P49841) | 14.3 |
| FGFR3 (Homo sapiens, UniProt P22607) | 46.5 |
| FGFR1 (Homo sapiens, UniProt P11362) | 68.8 |
| MAP3K5 (Homo sapiens, UniProt Q99683) | 95.8 |
| JAK3 (Homo sapiens, UniProt P52333) | 107 |
| EPHA3 (Homo sapiens, UniProt P29320) | 88.2 |
| MAP2K2 (Homo sapiens, UniProt P36507) | 83.1 |
| MAPKAPK2 (Homo sapiens, UniProt P49137) | 109 |

Sample 3 — effect on: cell-free assay; method: competition with immobilised ligand; concentration: 1 µM
SMILES: Cc1cc(NC(=O)c2cccc(S(F)(F)(F)(F)F)c2)cc(-n2ccn3nc(-c4cccnc4)cc23)c1
| target | remaining binding [%] |
| --- | --- |
| MAPK1 (Homo sapiens, UniProt P28482) | 61.7 |
| TLK2 (Homo sapiens, UniProt Q86UE8) | 94.3 |
| CAMK1G (Homo sapiens, UniProt Q96NX5) | 100 |
| FRK (Homo sapiens, UniProt P42685) | 100 |
| RIOK1 (Homo sapiens, UniProt Q9BRS2) | 100 |
| PDGFRA (Homo sapiens, UniProt P16234) | 100 |
| MAP3K20 (Homo sapiens, UniProt Q9NYL2) | 84.4 |

Sample 4 — sample: 1,9-decadiene/PBS; pH: 7.4
| Structure (SMILES) | logD |
| --- | --- |
| CC(C)C[C@@H]1NC(=O)[C@H](C)NC(=O)[C@H](CC(C)C)NC(=O)[C@@H](CC(C)C)NC(=O)[C@H](CC(C)C)NC(=O)[C@H](C)NC(=O)[C@@H](CC(C)C)NC1=O | -0.142 |
| CC(C)C[C@@H]1NC(=O)[C@H](CC(C)C)NC(=O)[C@@H](CC(C)C)NC(=O)[C@H](C(C)C)NC(=O)[C@@H](Cc2cscn2)NC(=O)[C@H](Cc2cscn2)NC(=O)[C@H](CCC(=O)N2CCCC2)NC1=O | -1.56 |
| CC(C)C[C@@H]1NC(=O)[C@@H](C)NC(=O)[C@H](Cc2cscn2)NC(=O)[C@@H](CC(C)C)NC(=O)[C@H](C(C)C)NC(=O)[C@H](CC(C)C)NC(=O)[C@@H](CC(C)C)NC1=O | -0.497 |
| CC(C)C[C@@H]1NC(=O)[C@H](Cc2cscn2)NC(=O)[C@H](CCC(=O)N2CCCC2)NC(=O)[C@H](CCC(=O)N2CCCC2)NC(=O)[C@@H](Cc2cscn2)NC(=O)[C@H](CC(C)C)NC(=O)[C@@H](CC(C)C)NC1=O | -3.22 |
| CC(C)C[C@@H]1NC(=O)[C@H](CC(C)C)NC(=O)[C@@H](CC(C)C)NC(=O)[C@H](Cc2cscn2)NC(=O)[C@@H](Cc2cscn2)NC(=O)[C@H](Cc2cscn2)NC(=O)[C@H](CCC(=O)N2CCCC2)NC1=O | -2.57 |
| CC(C)C[C@@H]1NC(=O)[C@H](C)NC(=O)[C@H](Cc2cscn2)NC(=O)[C@H](CCC(=O)N2CCCC2)NC(=O)[C@H](CC(C)C)NC(=O)[C@H](CC(C)C)NC(=O)[C@@H](C(C)C)NC1=O | -2.46 |

Some of these lines once more (sample 4):
| Structure (SMILES) | logD |
| --- | --- |
| CC(C)C[C@@H]1NC(=O)[C@@H](C)NC(=O)[C@H](Cc2cscn2)NC(=O)[C@@H](CC(C)C)NC(=O)[C@H](C(C)C)NC(=O)[C@H](CC(C)C)NC(=O)[C@@H](CC(C)C)NC1=O | -0.497 |
| CC(C)C[C@@H]1NC(=O)[C@H](Cc2cscn2)NC(=O)[C@H](CCC(=O)N2CCCC2)NC(=O)[C@H](CCC(=O)N2CCCC2)NC(=O)[C@@H](Cc2cscn2)NC(=O)[C@H](CC(C)C)NC(=O)[C@@H](CC(C)C)NC1=O | -3.22 |
| CC(C)C[C@@H]1NC(=O)[C@H](CC(C)C)NC(=O)[C@@H](CC(C)C)NC(=O)[C@H](Cc2cscn2)NC(=O)[C@@H](Cc2cscn2)NC(=O)[C@H](Cc2cscn2)NC(=O)[C@H](CCC(=O)N2CCCC2)NC1=O | -2.57 |
| CC(C)C[C@@H]1NC(=O)[C@H](C)NC(=O)[C@H](Cc2cscn2)NC(=O)[C@H](CCC(=O)N2CCCC2)NC(=O)[C@H](CC(C)C)NC(=O)[C@H](CC(C)C)NC(=O)[C@@H](C(C)C)NC1=O | -2.46 |
